Measured values collected from several papers.
Lines come from different studies, so protocols differ. ± marks the error that the study gave.
Target: Transient receptor potential cation channel subfamily V member 1 (TRPV1, Homo sapiens, UniProt Q8NER1)
Chain of UniProt Q8NER1 (whole entry, looked up): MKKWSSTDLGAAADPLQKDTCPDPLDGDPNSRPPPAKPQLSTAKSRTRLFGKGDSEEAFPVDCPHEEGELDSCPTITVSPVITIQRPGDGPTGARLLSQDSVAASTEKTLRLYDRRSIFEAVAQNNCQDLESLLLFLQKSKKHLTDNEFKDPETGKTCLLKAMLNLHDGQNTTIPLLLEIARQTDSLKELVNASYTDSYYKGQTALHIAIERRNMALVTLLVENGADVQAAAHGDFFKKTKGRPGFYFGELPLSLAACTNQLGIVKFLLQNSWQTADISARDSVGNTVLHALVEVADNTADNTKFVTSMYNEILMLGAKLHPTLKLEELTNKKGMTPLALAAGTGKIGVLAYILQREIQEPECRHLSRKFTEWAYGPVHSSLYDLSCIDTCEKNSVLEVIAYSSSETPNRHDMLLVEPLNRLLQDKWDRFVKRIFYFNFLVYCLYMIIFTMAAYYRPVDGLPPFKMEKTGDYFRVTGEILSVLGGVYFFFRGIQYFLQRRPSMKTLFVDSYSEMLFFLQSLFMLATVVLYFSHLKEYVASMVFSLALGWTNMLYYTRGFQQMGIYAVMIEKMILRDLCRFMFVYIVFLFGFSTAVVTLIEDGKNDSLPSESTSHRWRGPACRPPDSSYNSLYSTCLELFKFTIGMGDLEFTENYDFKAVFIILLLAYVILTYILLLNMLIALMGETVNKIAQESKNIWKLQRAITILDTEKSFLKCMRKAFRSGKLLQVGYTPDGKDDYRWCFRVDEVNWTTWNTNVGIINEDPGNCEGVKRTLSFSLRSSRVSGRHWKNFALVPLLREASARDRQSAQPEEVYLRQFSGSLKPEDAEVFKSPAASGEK

CN(C)C1(Cc2ccccc2)CCN(c2cc(C(F)(F)F)ccc2CNC(=O)Nc2cccc3ccc(O)cc23)CC1
Ki (45Ca2+ uptake, antagonist; CHO expressing human TRPV1; together with: 30 nM capsaicin): 8.9 nM

CC1CCN(c2nc(C(F)(F)F)ccc2CNC(=O)NCc2ccc(CNS(C)(=O)=O)c(F)c2)CC1
EC50 (45Ca2+ uptake, agonist; CHO expressing human TRPV1; reference: capsaicin 1 µM maximal response): > 3000 nM

CN(C)C1(Cc2ccccc2)CCN(c2cc(C(F)(F)F)ccc2CNC(=O)Nc2cccc3c2CC(O)CC3)CC1 (stereo not drawn)
Ki (45Ca2+ uptake, antagonist; CHO expressing human TRPV1; together with: 30 nM capsaicin): 10.1 nM

CC(C(=O)NCc1ccc(C(F)(F)F)nc1Oc1ccccc1)c1ccc(NS(C)(=O)=O)c(F)c1 (stereo not drawn)
IC50 (calcium influx, antagonist, FLIPR; CHO; together with: low pH): 1000 to 10000 nM

Cc1cccc(N(C(=O)NCc2ccc(C(F)(F)F)nc2N2CCC(C)CC2)c2ccc(NS(C)(=O)=O)c(F)c2)c1
EC50 (45Ca2+ uptake, agonist; CHO expressing human TRPV1; reference: capsaicin 1 µM maximal response): > 3000 nM

CCCC(CCC)Oc1nc(C(F)(F)F)ccc1CNC(=O)C(C)c1ccc(NS(C)(=O)=O)c(F)c1 (stereo not drawn)
IC50 (calcium influx, antagonist, FLIPR; CHO cells; together with: low pH): 1000 to 10000 nM

[3H]CC1([3H])CCN(c2nc(C(F)(F)F)ccc2CNC(=O)Nc2cccc3c2OCC(=O)N3)CC1
Kd (radioligand binding; no PMA or cyclosporin A): 0.534 ± 0.097 nM

COc1nc(C(F)(F)F)ccc1CNC(=O)C(C)c1ccc(NS(C)(=O)=O)c(F)c1 (stereo not drawn)
IC50 (calcium influx, antagonist, FLIPR; CHO; together with: low pH): 1000 to 10000 nM

CC1CCN(c2nc(C(F)(F)F)ccc2CNC(=O)C(C)c2ccc(NS(C)(=O)=O)c(F)c2)CC1 (stereo not drawn)
EC50 (45Ca2+ uptake, agonist; CHO expressing human TRPV1; reference: capsaicin 1 µM maximal response): > 3000 nM

For quick reference, copied from above:
CC(C(=O)NCc1ccc(C(F)(F)F)nc1Oc1ccccc1)c1ccc(NS(C)(=O)=O)c(F)c1 (stereo not drawn)
IC50 (calcium influx, antagonist, FLIPR; CHO; together with: low pH): 1000 to 10000 nM
